Published values of several laboratories.
A part holds a random share of what one study measured.

Set 1 — technique: RNA Bind-n-Seq; form: RNA; sample: in vitro; tested at: 365 nM; reference: no-protein control; reading: higher = stronger binding
Target: RNA binding protein fox-1 homolog 2, RRM domain, GST-SBP tag (RBFOX2, Homo sapiens, UniProt O43251-10, residues 100-194)
Setting: natural RNA segment, single round, ends assumed
Shared flanks, not repeated: GGGAGUUCUACAGUCCGACGAUC … UGGAAUUCUCGGGUGCCAA
Target sequence (chain): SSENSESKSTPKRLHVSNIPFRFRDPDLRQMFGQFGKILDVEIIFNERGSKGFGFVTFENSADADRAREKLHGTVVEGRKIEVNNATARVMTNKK
Strand | RBNS enrichment (R)
UCCAAGGCAACCAAGUGGAGAACACAUCACAGGAGACAGGAAAUAUGGCUUGUUCAUAGAAUGAUGCUACUGUGACUUCAAAACUGAUCUCAAGUAUUCUAGAAUCUGCU | 0.36
UUAGAUCAUUGAAAGGUUAACUAACAUGAGAAUUUCAGAGCAAAUUCCAAUACUCUUUUAAAAAGCGUGUCUGCCCUCUCUUACUUCUAUGUAUUUGUUUAUCGACACAC | 0.263
UAUUUUUCCCUCUCUGGUGAUAAGGUUUGUACAGACUGGUUUGGUAAAUGCUAAAUUUUUGUCUUUUGCCUUUUUAAAGGAAUUGUUACCAUUGGAAUUGAGGGUAUGUA | 1.31
CCAUGCAGAGCUACGAAAUCUGUGCUGAGAAAAUGCCAUCUGGAAAGAUUUUUAACCCAUUCAUUCUUAGUGUGAAUUUUCUAAAAUAGAAGUAUAAAAAAAAAGUCUCU | 0.531
CAGCUAUGAAAGCUUUGCUUACUGGGAUGGAUGGGGGCAGACAAGAGGACAGUAGGGAAUCUGCCGAGGUGCCCGCACGUACUUUAGUGAGUUUAGCCAAACUAACAGCA | 1.37
UGCAGUCCCAAAAUUAGGGGUCCUUCAGUCUUGGAGACUAUAAGGGAGCCUCUGCACCCAGGGAAAAUGUUACCCUUUACAGGGGGGAAGGGUAAACCAGUAGGGAAUAC | 0.562
AACACUGUCUCAUGUUGUGCUUCUUAAACGACAAAGAACAUAGUGACUUUUGGGGAUAGAUCUGUCUGGGAGAUAAUGUGAGUCCAGGAGGCAUUACUCUUCCCUGCCUC | 0.413
AGACAGUGAUGCCUGCCCGCACCCUGGCCUGGUCCCUGGUCCUUCACUGGCGCCUUCUCGGAGCUGGCCCAGGGGGCCUGGAGCAUGGACAGUGUGGGCGCUCUCCCUAC | 0.339

Set 2 — technique: RNA Bind-n-Seq; form: RNA; sample: in vitro; tested at: 200 nM; setting: whole 134-nt RNA, ends assumed; with: 150 mM KCl; reference: input library; reading: higher = stronger binding
Target: Fragile X messenger ribonucleoprotein 1, C-terminal low-complexity region (Fmr1, Mus musculus, UniProt P35922)
Shared flanks, not repeated: GGGAGUUCUACAGUCCGACGAUC … UGGAAUUCUCGGGUGUCAAGG
Strand | log2 enrichment
AAGUCCUGUGCUACACAUCGUAUGUACCGAAUCGGAAAAAGGUUUUUGGUUUUUGGAAAGUAUUAUGUUACGCCGUUCGGAUCUGCACUU | -1.17
UUCCUUCCACGACCCCUGAAGAGCAGCGGUGGGUCUGAGCAUCCUAUCUCCAGGAAGCAGGCCAGCAGGCAAGCCAGCUGCCACCUCGUC | -0.0572
UGCGAUAUGAACGUUCACAAGCAAUGCGUCAUCAAUGUCCCCAGCCUCUGCGGAAUGGAUCACACUGAGAAGAGGGGGCGGAUUUACCUA | -1.15
UAUCUUAUCUACACAUGGGGGACUGAAGAGUUCGAGAGAUCCAAGAGGAAGAAUCCAGCUGCCUAUGAAAAUGACAAAUGAGCAACGCAU | -0.625
GUCCUGUGCUACACAUCGUAUGUACCGAAUCGGGGAAAAGGGGAAAAGGGGAAAAGGGAAAGUAUUAUGUUACGCCGUUCGGAUCUGCAC | 0.251
UAACUUUAGAGGAGGAUUUGAUGGAUAUGGCAGUGGACGUGGAUUUGGGGAUGGCUAUAAUGGGUAUGGAGGAGGACCUGGAGGUGGCAA | 0.254
GUAGAAAUUCAUGUAUAAAUGGAACCAUAUAGUACAUACAUAUCAUACUCUUAGGUCUGGCAAAUAUUUGAGGUUCAUCCAUAUUUUAUA | -1.12
GCAGGAAGUAAAAACAAAUGGAAAUGUUUCGGAUAGUGGCAGGGGUGGGGGUUGCUAAGGAAAGGGUGGGAUGGGAGUGGGUAAAGAGUU | 0.459
ACCAUGCAGGUGGGCUUCUUUGGGAAGUGGGGCAAGGGGGGGAUAGGGAGGGGGGUAACACUUUGGGAACAGGUGGUCCCAGGUCGUUUC | 1.05

Set 3 — target: UBE2Q2 UBC core domain (UniProt Q8WVN8); technique: yeast two-hybrid; sample: yeast; setting: mostly zero background; reference: not given; reading: higher = stronger interaction
Chain of UniProt Q8WVN8 (whole entry, looked up): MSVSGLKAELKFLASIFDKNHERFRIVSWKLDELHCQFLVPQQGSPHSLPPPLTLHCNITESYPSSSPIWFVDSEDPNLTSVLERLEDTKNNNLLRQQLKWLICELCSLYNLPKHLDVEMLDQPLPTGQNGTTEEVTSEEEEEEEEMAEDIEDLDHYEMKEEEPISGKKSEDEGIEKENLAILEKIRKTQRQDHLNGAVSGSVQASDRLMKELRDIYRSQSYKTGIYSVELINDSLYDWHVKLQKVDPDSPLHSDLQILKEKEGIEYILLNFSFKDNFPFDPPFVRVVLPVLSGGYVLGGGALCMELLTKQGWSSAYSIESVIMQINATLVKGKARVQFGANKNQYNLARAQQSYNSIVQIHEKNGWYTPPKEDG
B1: MKRN3 RING domain (UniProt Q13064); chain FAVQRGMDKVCGICMEVVYEKANPNDRRFGILSNCNHSFCIRCIRRWRSARQFENRIVKSCPQCRVTSELVIPSE
B2: VPS8 RING domain (UniProt Q8N3P4); chain TRGLNPKQDYCSICLQQYKRRQEMADEIIVFSCGHLYHSFCLQNKECTVEFEGQTRWTCYKCSSSNKVGKLSE
B3: RNF182 RING domain (UniProt Q8N6D2); chain AESQASDELECKICYNRYNLKQRKPKVLECCHRVCAKCLYKIIDFGDSPQGVIVCPFCRFETCLPDDEV
B4: BFAR RING domain (UniProt Q9NZS9); chain GPQISVSEFSCHCCYDILVNPTTLNCGHSFCRHCLALWWASSKKTECPECREKWEGFPKVS
B5: CNOT4 RING domain (UniProt O95628); chain MSRSPDAKEDPVECPLCMEPLEIDDINFFPCTCGYQICRFCWHRIRTDENGLCPACRKPYPED
B6: TRIM11 RING domain (UniProt Q96F44); chain LSTNLQEEATCAICLDYFTDPVMTDCGHNFCRECIRRCWGQPEGPYACPECRELSPQRNLRP
B7: RUFY1 RING domain (UniProt Q96T51); chain QALKGHAWLKDDEATHCRQCEKEFSISRRKHHCRNCGHIFCNTCSSNELALPSYPKPVRVCDSCHTLLLQRCSSTAS
Molecule | lacZ reporter activity
ASPKIFQKTKCSICNSALELPSVHFLCGHSFHQHCFESYSESDADCPTCLPENRKVMDMI (VPS11 RING domain (UniProt Q9H270)) | 0
B1 (MKRN3 RING domain) | 0
B2 (VPS8 RING domain) | 0
B3 (RNF182 RING domain) | 0
FAEQPSVKLCCQLCCSVFKDPVITTCGHTFCRRCALKSEKCPVDNVKLTVVVNNI (TRAF7 RING domain (UniProt Q6Q0C0)) | 0
B4 (BFAR RING domain) | 0
FDPPLESKYECPICLMALREAVQTPCGHRFCKACIIKSIRDAGHKCPVDNEILLENQLFP (TRAF6 RING domain (UniProt Q9Y4K3)) | 0
LVKDFNPYITCYICKGYLIKPTTVTECLHTFCKTCIVQHFEDSNDCPRCGNQVHETNPLE (PCGF5 RING domain (UniProt Q86SE9)) | 0
B5 (CNOT4 RING domain) | 0
B6 (TRIM11 RING domain) | 0
LEALSSDFLACKICLEQLRAPKTLPCLHTYCQDCLAQLADGGRVRCPECRETVPVPPEGV (TRIM56 RING domain (UniProt Q9BRZ2)) | 0
DDVLTKDAGECVICLEELLQGDTIARLPCLCIYHKSCIDSWFEVNRSCPEHPAD (ZNRF1 RING domain (UniProt Q8ND25)) | 0
B7 (RUFY1 RING domain) | 0

Set 4 — technique: competition protein-binding microarray; form: double-stranded DNA, one strand shown; sample: in vitro; tested at: 2 µM; with: Cbf1 competitor, 0.05 µM; reading: higher = stronger binding; shared flanks, not repeated: … GTCTTGATTCGCTTGACGCTGCTG
Target: Phosphate system positive regulatory protein PHO4, full length, GST-tagged (PHO4, Saccharomyces cerevisiae, UniProt P07270, residues 1-312)
Setting: whole 60-bp probe, lowest competitor level
Target sequence (chain): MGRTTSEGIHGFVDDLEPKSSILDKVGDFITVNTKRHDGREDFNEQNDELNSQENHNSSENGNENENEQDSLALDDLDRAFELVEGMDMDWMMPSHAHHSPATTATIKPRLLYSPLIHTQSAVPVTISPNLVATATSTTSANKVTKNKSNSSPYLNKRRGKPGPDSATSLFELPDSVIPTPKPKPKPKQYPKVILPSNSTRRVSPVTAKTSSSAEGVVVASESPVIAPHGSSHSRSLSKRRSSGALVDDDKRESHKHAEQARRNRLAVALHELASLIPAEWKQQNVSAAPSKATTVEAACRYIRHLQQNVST
Strand | fluorescence intensity [a.u.]
GTCTTGTCTCATTTTCACGTGCGTTTCCCCACTTCA | 14400
CTTGTTTGGCTTGCTCACATGGGGCTACAGGTAAAA | 8360
AAATTACTAAGTTGAACTGTGGGTGACGCCGTATGA | 3850
GTTATTCGAGATTTGCACGTGGACCCTGAAGTCTTG | 15100
ATCCTCATGTTCTTCCACGTGAAGATCGCCCGCTTC | 13100
TCATGATTGTCTTGATGTGCTTTGCCGGGCTATACA | 3650
CGTCCTAGTGATTGTCACTTGACTTCCATGAGGAAG | 4010
CATACCCAACCTTGTCACCGGACTTAAGATATTTGT | 3440
ATGATGGGAAACCATCACGTACGGTTTGGGAAAGGC | 5110
GAGTTTGGAATCAAACTCGTGGCCGACCTATGGATC | 9700
CGCGCTTGTTATACCCACGTTATTATTTGCCCCCAA | 9760
AAAAATCTCGCAGACCATGTGACGGCCGGTACTCCT | 7980
GTCTTGTCTCATTGTCACTCGACTTTCCCCACTTCA | 4340
GTTGGCGAGGAAGATCGCGTGCGGACTAATTTTGAA | 9280
CTGTGGACGAATCGGCACGCTTATTATTTAGGAGTG | 9140
ACCCTCTTGGCCATTCGCGTGCGGATTGATTGCCGG | 8070
CGTCCTAGTGATTGTGGCGTGGGTGCCATGAGGAAG | 7230
CAACCGCGTCGGCCCAACCTGATCTTGCAATTAGCA | 2820
CGTCCTAGTGATTTTCACGTGAATTCCATGAGGAAG | 8460

Excerpt of the above (set 3):
Molecule | lacZ reporter activity
B3 (RNF182 RING domain) | 0
FAEQPSVKLCCQLCCSVFKDPVITTCGHTFCRRCALKSEKCPVDNVKLTVVVNNI (TRAF7 RING domain (UniProt Q6Q0C0)) | 0
B4 (BFAR RING domain) | 0
FDPPLESKYECPICLMALREAVQTPCGHRFCKACIIKSIRDAGHKCPVDNEILLENQLFP (TRAF6 RING domain (UniProt Q9Y4K3)) | 0
LVKDFNPYITCYICKGYLIKPTTVTECLHTFCKTCIVQHFEDSNDCPRCGNQVHETNPLE (PCGF5 RING domain (UniProt Q86SE9)) | 0
B5 (CNOT4 RING domain) | 0
